Results from different studies.
Every numbered part comes from another study and shows a few of its results, in no order.

Sample 1
Target: RNA binding protein fox-1 homolog 2, RRM domain, GST-SBP tag (RBFOX2, Homo sapiens, UniProt O43251-10, residues 100-194)
Technique: RNA Bind-n-Seq
Molecule type: RNA
Medium: in vitro
Concentration: 365 nM
Setting: natural RNA segment, single round, ends assumed
Reference: no-protein control
Reading: higher = stronger binding
Shared flanks, not repeated: GGGAGUUCUACAGUCCGACGAUC … UGGAAUUCUCGGGUGCCAA
Residues (chain): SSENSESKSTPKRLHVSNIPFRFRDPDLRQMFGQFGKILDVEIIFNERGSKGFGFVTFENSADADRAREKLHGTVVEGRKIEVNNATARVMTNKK
| Strand | RBNS enrichment (R) |
| --- | --- |
| CAAAUGUUUGCCCUGGUGGUUCCUAUCUCUUCAGGCAAACAUGGUCAGUAUUCUGUAAAGUUCCCCUGGCCUAAAUGAUUACUUGCUCUGGGCAAGUGGAUAUUUAUUAG | 0.348 |
| AGAAGAAUUGGAGCCAGACUUUAGUGAACUCAGCUCAGAGUUGUAAGGACCAGCACACUGGUGGCCAUUUUCUGCACAAGCAAAUGGAAUUGCUUUUUUUCAGCAUCCCA | 0.582 |
| UAAGUAUGAAUACACAGUGUGGCAGUGUUGUGGUUUUUGUUGUUGUUUUUCCUCUCCUUUUGAGAAUUUUCUUUUGUAAAAGAAAAAUAUUUUUUAAACCGAAAUCUGUG | 1.96 |
| GUUUGUUGAGAGGAUUUCCUGAGACUGGUUUGGGUCUCCCUGCAUGACAGUCCCCCAGAAACUUGGUGUGUCCUGGGCUGGACUGACACCCAGAAAGCUUACCUGCGAGC | 28.7 |
| CCCCCCAAAGACAGUGCAAGUAAUGACCGUUUGGAUCUCAUUCGUCGAUCUUUGAUAGUAUGUUCUGGAGUCUACUCCCCAGGAGCCAGGACAGGCGUGAAGAUGGAGUC | 1.19 |
| GCUCCUACCUCCUGCGACACCAGCGCACCCACAGCCACGAGAGGCCCUACAGCUGCCCCGAGUGUGGCAAGUGCUAUAGCCAGAACUCGUCCCUGCGCAGUCACCAAAGG | 0.38 |

Sample 2
Target: Prothrombin, mature alpha-thrombin (F2, Homo sapiens, UniProt P00734)
Technique: aptamer microarray, sandwich
Molecule type: DNA with 2'F-ANA
Medium: in vitro
Concentration: 200 nM
Setting: whole 15-mer aptamer, many near background
Together with: Cy3 exosite-II aptamer, 400 nM
Reading: higher = stronger binding
Strand: GGTTGGTGTGGTTGG
| Modification | mean fluorescence intensity |
| --- | --- |
| 2'F-ANA at 4 5 7 12 14 15 | 47.1 a.u. |
| 2'F-ANA at 1 3 4 7 8 9 11 13 14 | 72.6 a.u. |
| 2'F-ANA at 1 2 4 9 11 12 13 | 151 a.u. |
| 2'F-ANA at 1 2 3 5 9 10 12 13 | 52.8 a.u. |
| 2'F-ANA at 1 2 3 4 8 9 10 11 13 | 54 a.u. |

Sample 3
Target: Histone acetyltransferase KAT6A, winged helix 2, GST fusion (KAT6A, Homo sapiens, UniProt Q92794, residues 85-181)
Technique: protein binding microarray
Molecule type: double-stranded DNA, one strand shown
Medium: in vitro
Concentration: not given
Setting: 8-mer, flanks averaged, mean of 2 arrays, mostly near background
Reference: not given
Reading: higher = stronger binding
Target sequence (chain): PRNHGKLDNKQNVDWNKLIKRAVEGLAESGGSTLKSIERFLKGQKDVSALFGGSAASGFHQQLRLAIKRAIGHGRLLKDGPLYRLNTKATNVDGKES
| Strand | E-score |
| --- | --- |
| GAAACACC | 0.112 |
| GAATGGCA | 0.0758 |
| TAATCGCA | 0.183 |
| GATATGAA | -0.0422 |
| AGAAGAGA | -0.00624 |
| CATGCTTC | 0.0716 |

Single results of other studies
| Molecule | target | assay | test system | setting | how to read | endpoint | value |
| --- | --- | --- | --- | --- | --- | --- | --- |
| PhoQ, residues 284 288 289 292 302 303 TVTVVA | PhoP, residues 12 14 15 18 19 GQALL (Escherichia coli, UniProt P23836) | Sort-seq, item: YFP reporter | E. coli | PhoQ-PhoP variant library, together with: 10 µM Mg2+ | reference: high Mg2+ state, higher = stronger signaling | fold induction | 9.73 |

A few entries again (sample 2):
| Modification | mean fluorescence intensity |
| --- | --- |
| 2'F-ANA at 1 2 3 5 9 10 12 13 | 52.8 a.u. |
| 2'F-ANA at 1 2 4 9 11 12 13 | 151 a.u. |
